Measurements gathered from unrelated publications.
Every numbered part comes from another study and shows a few of its results, in no order.

Sample 1
Target: Ras GTPase-activating protein-binding protein 1, RRM domain (G3BP1, Homo sapiens, UniProt Q13283)
Chain of UniProt Q13283 (whole entry, looked up): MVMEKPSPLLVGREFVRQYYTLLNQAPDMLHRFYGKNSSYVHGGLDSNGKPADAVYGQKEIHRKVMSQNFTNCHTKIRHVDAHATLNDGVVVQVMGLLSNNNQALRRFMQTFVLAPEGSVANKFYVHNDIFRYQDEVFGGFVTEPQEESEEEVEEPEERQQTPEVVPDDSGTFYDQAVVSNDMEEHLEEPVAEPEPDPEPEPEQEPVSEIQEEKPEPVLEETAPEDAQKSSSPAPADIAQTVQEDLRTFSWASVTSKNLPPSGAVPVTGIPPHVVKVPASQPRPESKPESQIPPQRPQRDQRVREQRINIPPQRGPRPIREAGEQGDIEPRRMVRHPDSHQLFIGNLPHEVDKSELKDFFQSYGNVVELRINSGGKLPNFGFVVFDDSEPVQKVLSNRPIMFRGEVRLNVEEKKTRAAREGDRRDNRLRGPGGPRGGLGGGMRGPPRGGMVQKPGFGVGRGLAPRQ
Method: RNA Bind-n-Seq
Form: RNA
Medium: in vitro
Tested at: 1 µM
Notes: whole 134-nt RNA, ends assumed
Together with: 150 mM KCl
Reference: input library
Reading: higher = stronger binding
Constant ends, left off below: GGGAGUUCUACAGUCCGACGAUC … UGGAAUUCUCGGGUGUCAAGG
For `GUCCUGUGCUACACAUCGUAUGUACCGAAUCAAACCCCCCCAAACCCAAACCCCCAAAAAAGUAUUAUGUUACGCCGUUCGGAUCUGCAC`, the log2 enrichment was -0.126.
For `CCUGUGCUACACAUCGUAUGUACCGAAUCGGGGAAAAAGGGGUUUUUUUGGGGUUUGGGGAAAGUAUUAUGUUACGCCGUUCGGAUCUGC`, the log2 enrichment was 0.759.
The log2 enrichment of `UCAAGUCCUGUGCUACACAUCGUAUGUACCGAAUCGGGCCGGGGCCGGGGCCGGGAAAGUAUUAUGUUACGCCGUUCGGAUCUGCACUUC` is reported as -1.46.
With `AUGGACUUGCACAUGAUGAACUGUGAACUUCUAGCCACAUGUAGUGCCCUUGGGUACUUGGAGGGAGACACUUACCAUAAGGAACCAGAU` the log2 enrichment was -0.176.
The log2 enrichment of `UGGGAGUUGGAUUUUGUUUAUUUUUUUAGCUCAUUUCCAGGGGUGGGAAUUUUUUUUUAAUAUGUGUCAUGAAUAAAGUUGUUUUUGAAA` is reported as 2.04.
`GCAGGAAGUAAAAACAAAUGGAAAUGCUUCGGAUAAAGGCAGGGGUGGGGGUUGCUAAGGAAAGGGUGGGAUGGGAGUGGGUAAAGAGUU` has a log2 enrichment of 1.44.
The log2 enrichment of `CACAGACAACACGCACCCACACAGACACAGAGGGAAGGGGUUGGGAUGGGGACAGGGUGCACAGCAGGGCGGGGUAGGACCCCAGCCCUU` is reported as -0.474.
For `GCAGGAAGUAAAAACAAAUGGAAAUGCUUCGGAUAGUGGCAGGGGUGGGGGUUGCUAAGGAAAAAGUGGGAUGGGAGUGGGUAAAGAGUU`, the log2 enrichment was 1.36.
`CCUCAAGUCCUGUGCUACACAUCGUAUGUACCGAAUCGGGCGGGCGGGCGGGGAAAGUAUUAUGUUACGCCGUUCGGAUCUGCACUUCCA` has a log2 enrichment of 2.3.

Sample 2
Target: Histone acetyltransferase KAT6A, winged helix 2, GST fusion (KAT6A, Homo sapiens, UniProt Q92794, residues 85-181)
Method: protein binding microarray
Form: double-stranded DNA, one strand shown
Medium: in vitro
Tested at: not given
Notes: 8-mer, flanks averaged, mean of 2 arrays, mostly near background
Reference: not given
Reading: higher = stronger binding
Construct (chain): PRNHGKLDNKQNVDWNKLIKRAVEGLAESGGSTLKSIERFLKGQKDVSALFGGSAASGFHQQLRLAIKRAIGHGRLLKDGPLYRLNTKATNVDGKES
For `GATCAACA`, the E-score was 0.0679.
For `CGAAGTAC`, the E-score was 0.0488.
For `GCACGTGC`, the E-score was 0.021.
With `ACATGAGT` the E-score was -0.225.
For `AAAACAAT`, the E-score was 0.0375.
With `CCGGTATA` the E-score was 0.00953.
`ATTTTAAA` gave an E-score of 0.132.
For `GAAGTTAA`, the E-score was -0.175.
For `GGCAGCTA`, the E-score was 0.181.
The E-score of `AAATTCGG` is reported as 0.0585.
`ACACTAAC` has an E-score of 0.0204.

Sample 3
Target: Hepatocyte nuclear factor 3-alpha (Foxa1, Mus musculus, UniProt P35582, residues 1-468, full length assumed)
Chain of UniProt P35582 (whole entry, looked up): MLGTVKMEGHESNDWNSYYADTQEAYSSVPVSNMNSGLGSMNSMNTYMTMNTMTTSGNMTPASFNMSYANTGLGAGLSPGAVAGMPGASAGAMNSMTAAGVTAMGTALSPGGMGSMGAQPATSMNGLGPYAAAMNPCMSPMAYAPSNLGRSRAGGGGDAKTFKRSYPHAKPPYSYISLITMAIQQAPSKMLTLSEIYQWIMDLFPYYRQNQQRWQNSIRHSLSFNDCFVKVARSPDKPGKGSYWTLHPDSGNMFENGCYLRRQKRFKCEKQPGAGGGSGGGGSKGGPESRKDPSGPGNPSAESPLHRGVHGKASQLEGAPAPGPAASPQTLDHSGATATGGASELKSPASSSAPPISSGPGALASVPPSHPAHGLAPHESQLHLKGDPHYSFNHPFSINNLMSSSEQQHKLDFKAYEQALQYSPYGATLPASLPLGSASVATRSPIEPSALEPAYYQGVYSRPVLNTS
Method: EMSA with sequencing
Form: double-stranded DNA, one strand shown
Medium: in vitro
Tested at: 10 and 20 nM
Notes: whole designed probe, mean of two concentrations, ends assumed
Reference: negative control set to 0
Reading: higher = stronger binding
Constant ends, left off below: GTGAGCGGTGCCCATTGATGGGGAAC … TTTCACTGGGATCGTGGGGAC
For `CCTCTGACTCACCCTTCCTAGTGCCACCCAAGTTTCATCTGCACCATTGCTTACACATAATACAAGTACTTTATTTACTTACGCATTTGTTAATGTTTGCTCAGCTGTCTTGGTGCCTTTGTGTCTTTCACTGTGCTTTTAATTAGCTCGGCTGATTCTAAGAGTGGAGGTAAGCCAAGGTTTGAACCAGGTG`, “normalised bound fraction” read 0.518 ratio.
`CATATAAATGAATATAAATATGAATATGAATACAATCAATAGATAGACATCTGCCATCTTCTTACCACTGCCACCCATCCCAGTGACTTTTTGTTGTTTACTCAGACTAAAATGTCATCATAAGATAAAAATCCATCTATATTTCTATTTGGGATCAATACTACATATTTACTGTTACTTGTCATCCTTTGAT`: “normalised bound fraction” 0.417 ratio.
For `GCTCAAAAAGCTCGGCTCAAAACTTCATTGTTTTAGGTATTTTGGGGGGAAACGAAGAGTTATCTCAGGAAGGGGGAAATATGTATAGAAAAGTAATCTTGAAAACATAAGAATATTTATTCAGTAGTTCATCAAATATATATCAAAACTCTACAATGCCCCCAGATACATATTCTGTACAAGAAGAAATACG`, “normalised bound fraction” read 0.153 ratio.
For `TATTTTTACTAATTTGTATTTTCTAATTTTTTTTTTTTTTTTTTTTAAATTCACTAGGGTTTTTCTCTCTTTGACATTTAAACAAGAACACAAAGTAAACAGGAAATACAATTTCCAATGTCTTTTAAAGATAATGTTTTTATATAAGTTGTGTGTTCTCACTAGTTTTTTCTTCTTGAGGTAATGTATTAAT`, “normalised bound fraction” read 0.344 ratio.
`CGGTGTAGGTTTATTGCCTACATTTATCATTGGAGAAAATGCTAAATTTCAGTTAGAGATTAGTGAAAATGAAATGTAATTTTCTCCTATTTTTGTTTGCCCTTTGGGATCCTGGATGAAGAGCCCTGCATTACACTGGGCACAGTGGCTCATGCCTGCAATCCCAGCTACTAAGGAGGCTGAGGTAGGAGGA`: “normalised bound fraction” 0.042 ratio.

Mixed results
For `PhoQ, residues 284 288 289 292 302 303 TSTLRA`, the fold induction was 1.93 (PhoP, residues 12 14 15 18 19 MHTVL (Escherichia coli, UniProt P23836); Sort-seq, measured: YFP reporter; E. coli; PhoQ-PhoP variant library, together with: 10 µM Mg2+; reference: high Mg2+ state, higher = stronger signaling).

A few entries again (sample 1):
The log2 enrichment of `UGGGAGUUGGAUUUUGUUUAUUUUUUUAGCUCAUUUCCAGGGGUGGGAAUUUUUUUUUAAUAUGUGUCAUGAAUAAAGUUGUUUUUGAAA` is reported as 2.04.
The log2 enrichment of `CACAGACAACACGCACCCACACAGACACAGAGGGAAGGGGUUGGGAUGGGGACAGGGUGCACAGCAGGGCGGGGUAGGACCCCAGCCCUU` is reported as -0.474.
For `GCAGGAAGUAAAAACAAAUGGAAAUGCUUCGGAUAGUGGCAGGGGUGGGGGUUGCUAAGGAAAAAGUGGGAUGGGAGUGGGUAAAGAGUU`, the log2 enrichment was 1.36.
`GCAGGAAGUAAAAACAAAUGGAAAUGCUUCGGAUAAAGGCAGGGGUGGGGGUUGCUAAGGAAAGGGUGGGAUGGGAGUGGGUAAAGAGUU` has a log2 enrichment of 1.44.
